Assay results pooled from the literature.
Protocols differ between the studies behind these lines. “And” joins repeats or separate records; there may be more than shown. ± marks the error that the study gave.

Compound | test | test system | setting | scale | quantity | value
N[C@@H](CS)C(=O)O | binding, equilibrium dialysis LC-MS | – | 5 µM, thermostabilized A2AR-BRIL construct | baseline: no-protein control, direction not given | z-scored log2 fold change | 0.458
O=C(COc1ccc(Cl)cc1)NC12CC(c3nnc([C@H]4C[C@@H](OC(F)(F)F)C4)o3)(C1)C2 | – | healthy human, PBMC | oral, 400 mg single dose, day 1, 4 h post-dose, median, with: sodium arsenite ex vivo | baseline: baseline | ATF4 protein change | -55.2%
C[C@@H]1O[C@@H](Oc2ccc(CC#N)cc2)[C@H](O)[C@H](O)[C@H]1O | DPPH radical | – | 300 µg/mL | – | radical scavenging | 7.25 ± 0.98%
Cc1ccc([C@@H]2O[C@H](CO)[C@@H](O)[C@H](O)[C@H]2O)cc1Cc1ccc(-c2ccc(F)cc2)s1 | – | Japanese type 2 diabetes patients | 400 mg, day 2 | baseline: day 1 | change in fasting serum insulin | -2.2 µU/mL
Cc1noc(C)c1-c1cc(C(O)(c2ccccn2)c2ccccn2)c2nc(C3CC3)[nH]c2c1 | measured: CCR2 expression | human, peripheral blood | 0.6 mg, day 8, 1599 study | – | maximum inhibition | 34.5%
CN(C)C(=O)c1cc2cnc(Nc3ccc(N4CCNCC4)cn3)nc2n1C1CCCC1 | RNA-seq GSEA, measured: HALLMARK_ANDROGEN_RESPONSE | MB002 tumour | concentration not given, in vivo | baseline: vehicle, direction not given | normalized enrichment score | 1.36
CCCC(=O)SCCNC(=O)CCNC(=O)[C@H](O)C(C)(C)COP(=O)(O)OP(=O)(O)OC[C@H]1O[C@@H](n2cnc3c(N)ncnc32)[C@H](O)[C@@H]1OP(=O)(O)O | binding, equilibrium dialysis LC-MS | – | 5 µM, thermostabilized A2AR-BRIL construct | baseline: no-protein control, direction not given | z-scored log2 fold change | -0.228
C[C@H](Oc1ccc(Br)cc1-c1ccon1)C(=O)O | last response peak | human, tibialis anterior muscle | 400 mg, 15 Hz, single ascending dose | – | difference from placebo | 7.29%
O=C(O)CNC(=O)Cc1ccccc1 | – | ventricular cardiomyocytes, C57BL/6 mouse | dose not given, 0.296 s | – | sarcomere length | 1.7 µm
CC(C)(COP(=O)(O)OP(=O)(O)OC[C@H]1O[C@@H](n2cnc3c(N)ncnc32)[C@H](O)[C@@H]1O)[C@@H](O)C(=O)NCCC(=O)NCCS | binding, equilibrium dialysis LC-MS | – | 5 µM, thermostabilized A2AR-BRIL construct | baseline: no-protein control, direction not given | z-scored log2 fold change | -0.62
NC(=O)c1cnc2[nH]ccc2c1N[C@@H]1[C@@H]2CC3C[C@H]1C[C@@](O)(C3)C2 | flow cytometry, measured: CD4+ naive T cells | Japanese healthy subjects, peripheral blood | oral, 100 mg twice daily, day 4 | – | change from baseline | -2.73%
C[C@H]1O[C@@H](O[C@H]2CC[C@@]3(C)[C@@H](CC[C@]4(C)[C@@H]3C=C[C@]35OC[C@@]6(CCC(C)(C)C[C@H]63)[C@@H](O)C[C@]54C)[C@]2(C)CO)[C@H](O)[C@@H](O[C@@H]2O[C@H](CO)[C@@H](O)[C@H](O)[C@H]2O)[C@H]1O | Western blot, measured: Deptor | chronic-plus-binge ethanol-fed mice, liver | dose not given, dose level -M, unit not given | baseline: β-actin | protein level | 1.2 and 0.964 and 1.06
O=C(O)Cc1ccc(O)cc1 | ABTS radical | – | 300 µg/mL | – | radical scavenging | 64.9 ± 1.33%
Cc1n[nH]c2ccc(-c3cc(OC[C@@H](N)Cc4ccccc4)cnc3-c3ccoc3)cc12 | kinase binding, competitor, MIB/MS competition, measured: GIN4 | Candida albicans cell lysate | 100 nM | baseline: DMSO | log2 fold change | -0.016
CCOc1c([C@H](C)n2nc(C)c3c(N)ncnc32)cc(Cl)c(F)c1[C@@H]1CNC(=O)C1 | Olink proximity extension proteomics, measured: SERPINA9 | human FL or MZL patients, plasma | dose not given, week 8 | baseline: baseline | plasma protein level change | -74%
NC1(C(=O)N[C@@H](CCO)c2ccc(Cl)cc2)CCN(c2nc[nH]c3nccc2-3)CC1 | – | human mCRPC patients | dose not given, with: enzalutamide | – | overall non-response rate | 75%
CC(C)c1ncc(C(=O)N2CCOC3(CCN(Cc4ccc(F)c(CCNC[C@H](O)c5ccc(O)c6[nH]c(=O)sc56)c4)CC3)C2)s1 | – | COPD patients | 18 µg single, 24 h, day 1 | baseline: baseline, placebo-corrected | trough FEV1 change | 0 mL
O=C(NC[C@H]1CN(c2ccc(N3CCOCC3=O)cc2)C(=O)O1)c1ccc(Cl)s1 | – | human normal renal function, plasma | 10 mg, mean, unit not given | baseline: baseline | prothrombin time AUC(0-48h) | 71
N[C@H](CO)C(=O)O | binding, equilibrium dialysis LC-MS | – | 5 µM, thermostabilized A2AR-BRIL construct | baseline: no-protein control, direction not given | z-scored log2 fold change | 0.282
N#Cc1ccc2c(-c3ccncc3)c(-c3ccc(F)cc3)nn2c1 | kinase binding, competitor, MIB/MS competition, measured: CAK1 | Candida albicans cell lysate | 100 nM | baseline: DMSO | log2 fold change | -0.384

Compound | test | test system | setting | scale | quantity | value
COc1ccccc1[C@H](Cn1c(=O)n(C(C)(C)C(=O)O)c(=O)c2c(C)c(-c3ncco3)sc21)OC1CCOCC1 | – | human | 200 mg, post-treatment | – | blood VLDL level | 13.9 ± 9.97 mg/dL
CC(C)[C@H](C(=O)Nc1ccc(C(=O)NO)cc1)c1ccccc1 | volumetric MRI | human, right C1 intradural meningioma | dose not given, day 809 | – | tumour volume | 0.0852 cm3
CC(=O)NCCc1c(Cc2ccccc2)[nH]c2ccccc12 | – | C3H/HeN mice, wild type | subcutaneous, 300 µg/mouse | – | days to re-entrainment | 10.6 ± 1.1 days
N#Cc1ccn2c(-c3ccncc3)c(-c3ccc(F)cc3)nc2c1 | kinase binding, competitor, MIB/MS competition, measured: KIN2 | Candida albicans cell lysate | 100 nM | baseline: DMSO | log2 fold change | -0.305
NC(=O)CCC(N)C(=O)O (stereo in doubt) | binding, equilibrium dialysis LC-MS | – | 5 µM, thermostabilized A2AR-BRIL construct | baseline: no-protein control, direction not given | z-scored log2 fold change | 0.242
CC(c1cc2ccccc2s1)N(O)C(N)=O (stereo not shown) | measured: 5-HETE | human whole blood | 3 µM, with: Escherichia coli | – | amount | 515 ± 130 pg/mL blood
C=CCn1c(=O)c2cnc(Nc3ccc(N4CCN(C)CC4)cc3)nc2n1-c1ccc2c(n1)[C@@](O)(CC)CC2 | – | MCF7 xenograft, BALB/c nude mice | oral, 80 mg/kg, day 29, once daily days 1-22 and 26-28 | – | tumour growth inhibition | 152%
CCN1CCN(Cc2ccc(Nc3ncc(F)c(-c4cc(F)c5nc6n(c5c4)[C@H](C)CCC6)n3)nc2)CC1 | – | human advanced solid tumours | 500 mg, phase Ia monotherapy RECIST 1.1 | – | objective response rate | 16.7%
C[C@H]1C[C@H]2CSC(N)=N[C@@]2(c2nc(NC(=O)c3ccc(OC(F)F)cn3)cs2)CO1 | measured: Aβx-40 | healthy adults, plasma | 275 mg once daily, day 4 | baseline: placebo | percent change from baseline | -73.8%
Cc1oncc1C(=O)Nc1ccc(C(F)(F)F)cc1 | measured: dihydroorotate | female CD-1 mice, pooled urine | oral, 10 mg/kg daily, 0-8 h after dose 10, 10-day dosing | – | DHO concentration | 378 ± 17.8 µM
N#Cc1ccc2c(c1)[C@H]1CCCN(C(=O)c3ccc4[nH]cnc4c3)[C@H]1C2 | – | human clinical trial | oral, 240 mg once daily, 28 d | – | diastolic blood pressure change | -0.8 mmHg
C[C@@H](O)CCOC(=O)C[C@@H](C)O | measured: non-esterified fatty acids | human, plasma | 60 min | – | log2 level | -2.26 ± 0.89 mmol/L
Cc1cn(-c2ccc3n(c2=O)CCN([C@@H](C)[C@@H]2CC[C@H](c4cc(F)c(Cl)cc4C(F)(F)F)O2)C3=O)cn1 | measured: Aβ40 | human, cerebrospinal fluid | 300 mg single dose, Tmax | baseline: placebo-adjusted baseline | change in CSF level | -22.3%
COc1ncc(-c2nc3c(n2C(C)C)[C@H](c2ccc(Cl)cc2)N(c2cc(Cl)cn(C)c2=O)C3=O)c(OC)n1 | International Working Group criteria | human acute myeloid leukemia patients | dose not given, response Unknown, all patients | – | best overall response | 3.3%
CC(C)[C@H](NC(=O)[C@H](Cc1ccc(O)cc1)NC(=O)[C@H](Cc1ccc(O)cc1)NC(=O)[C@@H]1CCCN1C(=O)[C@H](CCC(=O)O)NC(=O)[C@H](CCC(=O)O)NC(=O)[C@H](Cc1c[nH]c2ccccc12)NC(=O)[C@@H]1CCCN1C(=O)[C@@H](NC(=O)[C@H](CCC(N)=O)NC(=O)c1ccc2c(c1)C(=O)OC21c2ccc(O)cc2Oc2cc(O)ccc21)C(C)C)C(=O)N[C@H](C(=O)N[C@@H](CCCCN)C(=O)N[C@@H](CCCCN)C(=O)N[C@@H](CO)C(=O)N[C@@H](CO)C(=O)NCC(=O)NCC(N)=O)C(C)C | nerve branching | human head and neck surgery, nerves | 500 mg, not improved | baseline: white light | share of responses | 69.2%
COc1cc2cc(-c3ccc(CC(=O)Nc4cc(C(C)(C)C(F)(F)F)no4)cn3)cnc2cc1OC | RECIST v1.1 | human RET-altered solid tumours | dose not given, phase I | – | best overall response PR | 26%
COc1cc(C(=O)CCO)ccc1O | DPPH radical | – | 300 µg/mL | – | radical scavenging | 80.1 ± 1.14%
O=C(OC(C(F)(F)F)C(F)(F)F)N1CCN(Cc2cccc(Oc3ccccc3)c2)CC1 | PET | rhesus monkey, hippocampus | intravenous, 0.03 mg/kg, pretreatment blocking, with: [18F]T-401 | – | tracer distribution volume | 3.71 mL/cm3
Nc1ccn([C@H]2C[C@H](O)[C@@H](CO)O2)c(=O)n1 | binding, equilibrium dialysis LC-MS | – | 5 µM, thermostabilized A2AR-BRIL construct | baseline: no-protein control, direction not given | z-scored log2 fold change | 0.105
CO[C@H]1CC[C@H](N2C(=O)CNc3ncc(-c4ccc(C(C)(C)O)nc4)nc32)CC1 | flow cytometry | stimulated monocytes, human, blood | 30 mg single dose, 24 h, median | baseline: baseline | pAKT change from baseline | -42.7%

Excerpt of the above:
Compound | test | test system | setting | scale | quantity | value
O=C(NC[C@H]1CN(c2ccc(N3CCOCC3=O)cc2)C(=O)O1)c1ccc(Cl)s1 | – | human normal renal function, plasma | 10 mg, mean, unit not given | baseline: baseline | prothrombin time AUC(0-48h) | 71
CCCC(=O)SCCNC(=O)CCNC(=O)[C@H](O)C(C)(C)COP(=O)(O)OP(=O)(O)OC[C@H]1O[C@@H](n2cnc3c(N)ncnc32)[C@H](O)[C@@H]1OP(=O)(O)O | binding, equilibrium dialysis LC-MS | – | 5 µM, thermostabilized A2AR-BRIL construct | baseline: no-protein control, direction not given | z-scored log2 fold change | -0.228
CCOc1c([C@H](C)n2nc(C)c3c(N)ncnc32)cc(Cl)c(F)c1[C@@H]1CNC(=O)C1 | Olink proximity extension proteomics, measured: SERPINA9 | human FL or MZL patients, plasma | dose not given, week 8 | baseline: baseline | plasma protein level change | -74%
